Experimental data gathered from unrelated publications.
Each numbered part is a random draw from the data of one study; scales do not carry over between parts. Positions count from the first letter of the parent shown.

Study 1
Target: Protein C-ets-1, full length (ETS1, Homo sapiens, UniProt P14921, residues 1-441)
Technique: protein-binding microarray
Form: hairpin DNA
Sample: in vitro
Concentration: not given
Notes: whole hairpin DNA, median over replicate spots
Baseline: not given
Reading: higher = stronger binding
Endpoint: median fluorescence
Shared flanks, not repeated: GAGGCCA … TGGCCTCACACTC
Residues (chain): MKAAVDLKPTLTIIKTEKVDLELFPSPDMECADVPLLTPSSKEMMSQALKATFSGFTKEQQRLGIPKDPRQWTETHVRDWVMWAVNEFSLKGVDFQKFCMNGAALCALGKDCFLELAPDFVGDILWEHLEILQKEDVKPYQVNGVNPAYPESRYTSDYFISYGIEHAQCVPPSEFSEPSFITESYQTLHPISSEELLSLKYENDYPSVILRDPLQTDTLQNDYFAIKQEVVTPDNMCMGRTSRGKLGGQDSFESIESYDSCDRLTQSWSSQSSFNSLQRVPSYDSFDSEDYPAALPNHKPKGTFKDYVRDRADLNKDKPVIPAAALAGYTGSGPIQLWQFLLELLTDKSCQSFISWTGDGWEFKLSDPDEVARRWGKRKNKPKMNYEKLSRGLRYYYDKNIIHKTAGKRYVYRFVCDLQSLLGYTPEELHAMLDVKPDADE
GTCGGAAGTTGCCTCCTGGCAACTTCCGAC (5mC at 34): 4490 a.u.
GTCGGAAGTTGCCTCCTGGCAACTTCCGAC (5mC at 10): 643 a.u.
GCCGGAAGTTGCCTCCTGGCAACTTCCGGC: 9160 a.u.
GCCGGAAGTTGCCTCCTGGCAACTTCCGGC (5mC at 10): 876 a.u.
GCGGGAAGTTGCCTCCTGGCAACTTCCCGC (5mC at 9): 1130 a.u.
CCCGGAAGTTGCCTCCTGGCAACTTCCGGG: 8760 a.u.
GCCGGAAGCGGCCTCCTGGCCGCTTCCGGC: 7640 a.u.
GCCGGAACGTGCCTCCTGGCACGTTCCGGC (5mC at 29): 925 a.u.

Study 2
Target: RING finger protein unkempt homolog, zinc fingers 1-6, GST-SBP tag (UNK, Homo sapiens, UniProt Q9C0B0, residues 30-357)
Chain of UniProt Q9C0B0 (30-357, looked up): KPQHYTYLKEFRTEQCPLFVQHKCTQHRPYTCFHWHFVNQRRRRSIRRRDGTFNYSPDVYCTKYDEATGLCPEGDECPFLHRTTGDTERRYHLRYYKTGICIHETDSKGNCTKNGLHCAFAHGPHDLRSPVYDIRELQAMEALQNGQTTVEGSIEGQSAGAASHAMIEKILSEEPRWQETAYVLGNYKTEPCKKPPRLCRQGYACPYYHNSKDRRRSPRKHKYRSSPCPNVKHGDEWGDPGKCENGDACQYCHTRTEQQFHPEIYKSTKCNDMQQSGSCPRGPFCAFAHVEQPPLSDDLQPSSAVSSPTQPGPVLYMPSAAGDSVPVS
Technique: RNA Bind-n-Seq
Form: RNA
Sample: in vitro
Concentration: not given
Notes: RNA with constant flanks, human-mouse chimeric sites, ends assumed
Baseline: input RNA pool
Reading: higher = stronger binding
Endpoint: bound/input enrichment
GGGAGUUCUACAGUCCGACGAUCCACAGAGCAGCACCUACCCCCUCCUCCUUUCCACACCUGCAAACUCUUUUACUUGGGCUGAAUAUUUAGUGUAAUUACAUCUCAGCUUUUGAGGGCUCUGUGGCAAAUUCCCGGAUUAAACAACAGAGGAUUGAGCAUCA: 1.04 ratio
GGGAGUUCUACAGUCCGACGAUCACCUCCCCCUCCCGCCUCACCCCACCCCCGCUUUUUGGAAAGUUUUUGGCUUUUUUUUUUUUUAGAAAUACAAAGUGAUUACAGUUUCCCCCGCAAGGGUCUAUCGAAGGGCUUGACGGACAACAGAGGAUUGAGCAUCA: 1.32 ratio
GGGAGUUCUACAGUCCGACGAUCGAUCAUGGAACCAGAAUAGAAAUGAAGAUGAGAUUACCCAAGACGAGCAAAACAGCUGCGCUACAGAAAAGUAAACUUAACCUUGCAGAGUUCCUUAAUGAAGAUACAAGUUAAGAGAGCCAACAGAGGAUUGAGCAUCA: 0.451 ratio
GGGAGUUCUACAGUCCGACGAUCACCAUUUUCGCGGUUCAGGCUUUGUGUGUAGUUCACUUACGGUAUUAAAUUAUUAUUCUGCUUAGCUUAUAAUAAGGAUAAUUGCAUGAUUUAAGUAUACUGAAUGUUACUCUGAAACUUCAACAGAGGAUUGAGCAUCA: 0.384 ratio
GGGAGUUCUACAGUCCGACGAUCAAAGAGUGGAUAGAGUGUGCACACGGGAUCGGUUAUACCCGGGCGAAGAAAGAGUGCAAGAUAGAGUUCGAUGACUUCGAAGAGUGCUUGCUUCGGUACAAAACGAUGAGGCGAAUGCAUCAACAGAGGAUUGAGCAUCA: 0.383 ratio
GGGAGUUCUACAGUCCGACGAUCGAUCAUGAACCACCAUCAGAAAUGAAGGAUGAGACUACCAGACGAGCCAAAACAGCUGCGCUACAGAAAAGUAAACUUAACCUUGCAGAGUUCCUUAAUGAAGAUACAAGUUAAGAGAGCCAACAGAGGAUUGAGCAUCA: 0.223 ratio
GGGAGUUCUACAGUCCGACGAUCGGAAGUACAUUAAUGGAGAUUGAUGGUGACAAAGGCAAGCAGGGCGGGCCCACCUACUACAUAGAUACCAAUGCCCUCCGCGUGCCCAGGGAGAACAUGGAGGCCAUCUCACCACUCAAGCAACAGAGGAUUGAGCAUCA: 0.296 ratio
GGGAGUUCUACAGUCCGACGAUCGUAAUGGACGUCAACACUGCUUUACAAGAGGUGCUGAAGACCGCCCUCAUCCACGAUGGCCUAGCACGUGGAAUUCGCGAAGCUGCCAAAGCCUUAGACAAGCGCCAAGCCCAUCUGUGUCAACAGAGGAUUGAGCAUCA: 0.678 ratio

Study 3
Target: BATF2, bZIP domain (human)
Technique: DHFR protein complementation
Sample: yeast
Notes: single substitutions, most at no-binding floor
Baseline: wild-type JUN-FOS pair
Reading: higher = stronger binding
Endpoint: binding fitness
Parent: JUN, bZIP domain (human); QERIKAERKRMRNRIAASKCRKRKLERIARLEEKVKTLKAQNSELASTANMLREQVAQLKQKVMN; partner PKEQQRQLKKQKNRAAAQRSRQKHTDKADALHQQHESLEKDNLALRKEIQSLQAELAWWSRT
Q41D: -0.603 natural log
N42D: -1.41 natural log
A40S: -0.363 natural log
S47V: -0.128 natural log
A29D: -0.408 natural log
L31Q: -1.19 natural log
K36F: -0.626 natural log
A46P: -1.28 natural log

Further values, each from its own experiment
Parent: PafA, mature enzyme, eGFP fusion (Elizabethkingia meningoseptica, UniProt Q9KJX5); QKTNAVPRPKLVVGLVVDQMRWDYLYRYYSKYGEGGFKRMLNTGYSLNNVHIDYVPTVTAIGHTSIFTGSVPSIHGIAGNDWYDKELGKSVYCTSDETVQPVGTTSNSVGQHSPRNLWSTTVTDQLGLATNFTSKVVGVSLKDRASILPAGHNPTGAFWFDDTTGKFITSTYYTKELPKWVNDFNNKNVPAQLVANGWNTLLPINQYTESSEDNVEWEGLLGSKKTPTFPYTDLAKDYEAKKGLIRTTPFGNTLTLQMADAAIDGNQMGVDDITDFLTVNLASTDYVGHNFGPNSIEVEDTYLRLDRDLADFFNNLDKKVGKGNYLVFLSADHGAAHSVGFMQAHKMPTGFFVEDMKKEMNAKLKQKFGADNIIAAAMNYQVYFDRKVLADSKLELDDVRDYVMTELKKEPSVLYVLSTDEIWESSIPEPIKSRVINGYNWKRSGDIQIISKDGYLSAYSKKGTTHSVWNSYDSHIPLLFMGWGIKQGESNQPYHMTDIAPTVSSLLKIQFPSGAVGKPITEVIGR
L316V — oxyanion analog dissociation constant (tungstate, free oxyanion; microfluidic competitive inhibition; in vitro, cell-free expressed; not given, derived from inhibition constants, unchanged parent 2230 nM; lower = stronger binding): 2.44 µM

A few entries again (study 2):
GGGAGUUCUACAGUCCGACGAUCAAAGAGUGGAUAGAGUGUGCACACGGGAUCGGUUAUACCCGGGCGAAGAAAGAGUGCAAGAUAGAGUUCGAUGACUUCGAAGAGUGCUUGCUUCGGUACAAAACGAUGAGGCGAAUGCAUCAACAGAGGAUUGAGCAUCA: 0.383 ratio
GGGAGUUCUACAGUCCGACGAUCGAUCAUGAACCACCAUCAGAAAUGAAGGAUGAGACUACCAGACGAGCCAAAACAGCUGCGCUACAGAAAAGUAAACUUAACCUUGCAGAGUUCCUUAAUGAAGAUACAAGUUAAGAGAGCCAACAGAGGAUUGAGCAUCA: 0.223 ratio
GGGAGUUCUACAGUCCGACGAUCGGAAGUACAUUAAUGGAGAUUGAUGGUGACAAAGGCAAGCAGGGCGGGCCCACCUACUACAUAGAUACCAAUGCCCUCCGCGUGCCCAGGGAGAACAUGGAGGCCAUCUCACCACUCAAGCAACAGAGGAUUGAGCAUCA: 0.296 ratio
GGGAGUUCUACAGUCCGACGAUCGUAAUGGACGUCAACACUGCUUUACAAGAGGUGCUGAAGACCGCCCUCAUCCACGAUGGCCUAGCACGUGGAAUUCGCGAAGCUGCCAAAGCCUUAGACAAGCGCCAAGCCCAUCUGUGUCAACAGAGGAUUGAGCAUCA: 0.678 ratio
